Experimental data gathered from unrelated publications.
Each line is one published result; not all experiments were run side by side.
Target: Prostaglandin G/H synthase 2 (PTGS2, Homo sapiens, UniProt P35354)
UniProt P35354, sequence (whole entry, looked up): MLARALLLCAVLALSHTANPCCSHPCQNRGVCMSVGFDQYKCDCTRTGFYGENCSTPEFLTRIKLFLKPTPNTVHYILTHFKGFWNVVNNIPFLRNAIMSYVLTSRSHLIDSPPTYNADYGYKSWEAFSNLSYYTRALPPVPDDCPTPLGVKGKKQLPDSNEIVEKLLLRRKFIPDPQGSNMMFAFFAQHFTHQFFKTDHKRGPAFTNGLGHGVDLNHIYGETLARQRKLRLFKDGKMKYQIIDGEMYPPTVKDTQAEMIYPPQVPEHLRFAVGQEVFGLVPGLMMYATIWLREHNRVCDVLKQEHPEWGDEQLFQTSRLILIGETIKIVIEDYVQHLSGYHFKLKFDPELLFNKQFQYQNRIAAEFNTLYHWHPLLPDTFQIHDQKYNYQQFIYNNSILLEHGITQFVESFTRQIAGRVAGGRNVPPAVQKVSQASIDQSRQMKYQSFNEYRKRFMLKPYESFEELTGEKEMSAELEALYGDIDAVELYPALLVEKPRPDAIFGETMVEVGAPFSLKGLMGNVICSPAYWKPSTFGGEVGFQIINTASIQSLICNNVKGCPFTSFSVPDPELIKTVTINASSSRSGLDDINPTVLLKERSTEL
Read-out: enzyme activity
Mode: inhibitor

FC(F)(F)Oc1cccc(/N=c2\oc3ccccc3cc2-c2ccccc2)c1
IC50: 0.0113 µM

Brc1ccc(NCc2cn(-c3ccccc3)nc2-c2ccc(OCc3ccccc3)cc2)cc1
IC50 (absorbance): 9.63 µM

O=[N+]([O-])c1ccc(/N=c2\oc3ccccc3cc2-c2ccccc2)cc1
IC50: 0.0131 µM

COc1cccc(NCc2cn(-c3ccccc3)nc2-c2ccc(OCc3ccccc3)cc2)c1
IC50 (absorbance): 4.71 µM

O=C(OCC1=C[C@@H](O)[C@H](O)[C@@H](OC(=O)c2ccccc2)[C@@H]1O)c1ccccc1
IC50 (fluorescence): 175 µM

NS(=O)(=O)Cc1ccccc1Nc1c(Cl)cccc1Cl
IC50 (fluorescence): > 100 µM

COc1cc2c(=O)oc3c(OC)c(O)cc4c(=O)oc(c1O)c2c34
IC50 (fluorescence): 34.7 µM

Clc1cccc(Cl)c1Nc1ccccc1Cc1nnn[nH]1
IC50 (fluorescence): 12 µM

Cc1ccc(NCc2cn(-c3ccc(S(N)(=O)=O)cc3)nc2-c2ccc(OCc3ccccc3)cc2)cc1
IC50 (absorbance): 1.79 µM

FC(F)(F)Oc1ccc(/N=c2\oc3ccccc3cc2-c2ccccc2)cc1
IC50: 0.0095 µM

O=C1CCN(Cc2ccccc2)CC1C(C[N+](=O)[O-])c1ccccc1 (stereo not drawn)
IC50: 5.79 µM

COc1c(OC2OC(CO)C(O)C(O)C2O)cc2c(=O)oc3c4c(cc5c(=O)oc1c2c35)OCO4 (stereo not drawn)
IC50 (fluorescence): 170 µM

N#Cc1ccc(/N=c2\oc3ccccc3cc2-c2ccccc2)cc1
IC50: 0.0192 µM

N#C/C=C1/C=CC(O)CC1OC1OC(CO)C(O)C(O)C1O (stereo not drawn)
IC50 (ELISA, item: PGE2): > 70 µM

NS(=O)(=O)c1ccc(-n2cc(CNc3ccccc3Cl)c(-c3ccc(OCc4ccccc4)cc3)n2)cc1
IC50 (absorbance): 2.51 µM

Some of these lines once more:
O=[N+]([O-])c1ccc(/N=c2\oc3ccccc3cc2-c2ccccc2)cc1
IC50: 0.0131 µM

COc1cccc(NCc2cn(-c3ccccc3)nc2-c2ccc(OCc3ccccc3)cc2)c1
IC50 (absorbance): 4.71 µM
